# Published values gathered from unrelated publications.
# Every numbered part comes from another study and shows a few of its results, in no order.
# UniProt P35354, sequence (whole entry, looked up): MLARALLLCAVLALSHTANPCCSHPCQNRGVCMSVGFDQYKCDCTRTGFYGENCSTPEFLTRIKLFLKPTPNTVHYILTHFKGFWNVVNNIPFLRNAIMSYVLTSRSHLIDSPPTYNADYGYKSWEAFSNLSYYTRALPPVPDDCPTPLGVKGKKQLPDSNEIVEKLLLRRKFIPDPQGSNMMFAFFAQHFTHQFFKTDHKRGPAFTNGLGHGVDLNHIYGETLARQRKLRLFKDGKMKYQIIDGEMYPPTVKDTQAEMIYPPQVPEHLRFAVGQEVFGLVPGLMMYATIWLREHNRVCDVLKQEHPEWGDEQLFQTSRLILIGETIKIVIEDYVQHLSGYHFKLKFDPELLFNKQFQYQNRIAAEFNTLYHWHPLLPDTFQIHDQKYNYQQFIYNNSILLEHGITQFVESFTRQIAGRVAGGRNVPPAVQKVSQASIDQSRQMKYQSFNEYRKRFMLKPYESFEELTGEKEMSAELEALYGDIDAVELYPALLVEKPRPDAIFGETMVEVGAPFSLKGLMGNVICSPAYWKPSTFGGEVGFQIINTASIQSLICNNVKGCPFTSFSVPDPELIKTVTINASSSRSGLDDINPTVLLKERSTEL
# UniProt P43403, sequence (whole entry, looked up): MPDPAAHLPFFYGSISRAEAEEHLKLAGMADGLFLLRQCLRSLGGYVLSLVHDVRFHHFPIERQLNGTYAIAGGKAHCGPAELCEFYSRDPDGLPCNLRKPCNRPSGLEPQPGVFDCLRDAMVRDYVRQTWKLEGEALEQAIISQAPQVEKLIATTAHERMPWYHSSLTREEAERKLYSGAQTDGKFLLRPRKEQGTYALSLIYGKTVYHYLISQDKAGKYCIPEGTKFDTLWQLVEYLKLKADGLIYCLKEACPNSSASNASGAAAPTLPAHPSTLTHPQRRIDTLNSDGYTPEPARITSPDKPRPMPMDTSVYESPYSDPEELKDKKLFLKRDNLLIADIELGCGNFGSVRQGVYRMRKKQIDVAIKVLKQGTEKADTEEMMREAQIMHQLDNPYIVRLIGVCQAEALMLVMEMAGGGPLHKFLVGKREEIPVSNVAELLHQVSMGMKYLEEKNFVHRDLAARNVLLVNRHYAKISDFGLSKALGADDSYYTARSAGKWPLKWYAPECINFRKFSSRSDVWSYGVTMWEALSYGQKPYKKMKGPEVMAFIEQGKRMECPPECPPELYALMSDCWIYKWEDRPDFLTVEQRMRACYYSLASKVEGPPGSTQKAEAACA
# UniProt P08172, sequence (whole entry, looked up): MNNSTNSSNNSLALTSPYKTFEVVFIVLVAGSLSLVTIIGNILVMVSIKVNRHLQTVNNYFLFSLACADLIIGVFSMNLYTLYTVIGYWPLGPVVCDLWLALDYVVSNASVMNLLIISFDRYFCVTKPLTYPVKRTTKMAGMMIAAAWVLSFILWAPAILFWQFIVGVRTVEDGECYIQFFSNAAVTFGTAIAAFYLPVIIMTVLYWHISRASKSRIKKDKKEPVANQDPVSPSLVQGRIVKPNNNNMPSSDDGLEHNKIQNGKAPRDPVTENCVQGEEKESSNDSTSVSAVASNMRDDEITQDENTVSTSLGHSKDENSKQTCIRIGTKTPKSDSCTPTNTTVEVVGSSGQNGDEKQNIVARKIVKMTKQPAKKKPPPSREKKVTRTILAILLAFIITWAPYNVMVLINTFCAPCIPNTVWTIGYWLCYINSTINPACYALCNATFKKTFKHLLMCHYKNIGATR
# UniProt P10721, sequence (whole entry, looked up): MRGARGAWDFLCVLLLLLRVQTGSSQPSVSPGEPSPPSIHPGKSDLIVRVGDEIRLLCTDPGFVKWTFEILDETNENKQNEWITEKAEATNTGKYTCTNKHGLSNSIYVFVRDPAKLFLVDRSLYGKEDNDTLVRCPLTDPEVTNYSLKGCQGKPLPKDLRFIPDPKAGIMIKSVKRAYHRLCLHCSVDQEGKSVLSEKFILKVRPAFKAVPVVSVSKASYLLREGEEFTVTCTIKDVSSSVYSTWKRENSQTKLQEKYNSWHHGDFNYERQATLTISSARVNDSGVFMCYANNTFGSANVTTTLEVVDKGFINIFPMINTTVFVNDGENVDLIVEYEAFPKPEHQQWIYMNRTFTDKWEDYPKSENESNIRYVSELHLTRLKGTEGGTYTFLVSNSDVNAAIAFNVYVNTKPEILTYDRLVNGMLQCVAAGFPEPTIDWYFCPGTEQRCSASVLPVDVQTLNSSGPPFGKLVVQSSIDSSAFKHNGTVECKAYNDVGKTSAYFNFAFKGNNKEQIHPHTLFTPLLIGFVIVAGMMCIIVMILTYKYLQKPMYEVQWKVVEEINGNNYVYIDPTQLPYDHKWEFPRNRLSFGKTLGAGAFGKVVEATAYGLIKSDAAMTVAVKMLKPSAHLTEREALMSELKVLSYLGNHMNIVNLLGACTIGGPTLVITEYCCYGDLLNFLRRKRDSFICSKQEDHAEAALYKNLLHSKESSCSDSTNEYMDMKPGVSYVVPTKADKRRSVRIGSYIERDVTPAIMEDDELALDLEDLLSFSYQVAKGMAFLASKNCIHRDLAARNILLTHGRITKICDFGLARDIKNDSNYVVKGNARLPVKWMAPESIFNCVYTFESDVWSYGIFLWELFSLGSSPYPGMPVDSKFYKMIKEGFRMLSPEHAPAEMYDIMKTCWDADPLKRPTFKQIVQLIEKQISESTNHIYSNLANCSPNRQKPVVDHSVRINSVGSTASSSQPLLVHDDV
# UniProt P49137, sequence (whole entry, looked up): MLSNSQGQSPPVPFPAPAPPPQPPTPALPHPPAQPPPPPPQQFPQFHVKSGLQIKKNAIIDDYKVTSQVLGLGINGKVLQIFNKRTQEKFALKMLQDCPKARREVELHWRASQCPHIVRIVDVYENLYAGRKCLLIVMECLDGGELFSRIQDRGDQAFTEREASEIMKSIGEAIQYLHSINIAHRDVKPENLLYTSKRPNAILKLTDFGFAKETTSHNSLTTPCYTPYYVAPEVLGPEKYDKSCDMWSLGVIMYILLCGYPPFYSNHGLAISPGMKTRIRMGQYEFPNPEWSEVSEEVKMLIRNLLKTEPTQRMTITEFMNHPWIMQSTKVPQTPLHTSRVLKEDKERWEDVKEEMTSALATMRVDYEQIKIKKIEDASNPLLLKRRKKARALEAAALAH
# UniProt Q16539, sequence (whole entry, looked up): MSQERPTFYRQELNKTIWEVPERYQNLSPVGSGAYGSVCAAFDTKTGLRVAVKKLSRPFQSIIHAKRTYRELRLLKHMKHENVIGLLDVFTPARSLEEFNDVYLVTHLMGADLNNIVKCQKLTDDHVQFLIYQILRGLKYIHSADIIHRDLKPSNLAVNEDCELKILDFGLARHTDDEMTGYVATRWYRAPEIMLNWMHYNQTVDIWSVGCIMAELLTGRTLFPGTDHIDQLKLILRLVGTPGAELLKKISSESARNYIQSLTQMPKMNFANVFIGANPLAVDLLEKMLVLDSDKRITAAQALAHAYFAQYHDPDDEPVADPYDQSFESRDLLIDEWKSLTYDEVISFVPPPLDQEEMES
# UniProt O14965, sequence (whole entry, looked up): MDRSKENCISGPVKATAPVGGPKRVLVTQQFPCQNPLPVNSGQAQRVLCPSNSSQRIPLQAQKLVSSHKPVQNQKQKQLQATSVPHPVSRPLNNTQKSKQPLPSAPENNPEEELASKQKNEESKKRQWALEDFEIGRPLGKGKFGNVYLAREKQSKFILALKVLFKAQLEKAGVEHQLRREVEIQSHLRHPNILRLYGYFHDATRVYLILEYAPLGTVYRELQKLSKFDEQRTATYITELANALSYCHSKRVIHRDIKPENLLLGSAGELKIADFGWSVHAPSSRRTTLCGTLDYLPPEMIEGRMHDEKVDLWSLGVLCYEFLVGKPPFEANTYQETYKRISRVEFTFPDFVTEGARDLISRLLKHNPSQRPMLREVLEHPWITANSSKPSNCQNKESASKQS

# Set 1
# SMILES: Cn1cncc1[C@](O)(COc1ccc(C#N)cc1-c1ccc(OC(F)(F)F)cc1)c1ccc(C#N)cc1
# Method: competition with immobilised ligand
# Tested at: 1 µM
target,test,remaining binding [%]
"ZAP70 (Homo sapiens, UniProt P43403)",cell-free assay,78
"HIPK1 (Homo sapiens, UniProt Q86Z02)",cell-free assay,100
"TEC (Homo sapiens, UniProt P42680)",binding,93

# Set 2
# SMILES: CNC(=O)c1ccc(-c2cnn3ccc(C(=O)N(C)c4ccc(Cl)c(C(=O)OC)c4)cc23)cc1
target,test,IC50 [µM]
"ADRA2A (Homo sapiens, UniProt P08913)",cell-free assay,> 30
"PTGS2 (Homo sapiens, UniProt P35354)","cell-free assay, inhibitor",> 30
"MAPK14 (Homo sapiens, UniProt Q16539)","enzyme activity, inhibitor",> 30
"MAPKAPK2 (Homo sapiens, UniProt P49137)","enzyme activity, inhibitor",> 30
"Aurora kinase A (AURKA, Homo sapiens, UniProt O14965)","enzyme activity, inhibitor",> 30
"FLT1 (Homo sapiens, UniProt P17948)","enzyme activity, inhibitor",> 30
"KIT (Homo sapiens, UniProt P10721)","enzyme activity, inhibitor",> 30
"ALK (Homo sapiens, UniProt Q9UM73)","enzyme activity, inhibitor",> 30
"CHRM2 (Homo sapiens, UniProt P08172)",cell-free assay,> 30

# Set 3
# Target: UDP-N-acetylglucosamine--peptide N-acetylglucosaminyltransferase 110 kDa subunit (OGT, Homo sapiens, UniProt O15294)
# UniProt O15294, sequence (whole entry, looked up): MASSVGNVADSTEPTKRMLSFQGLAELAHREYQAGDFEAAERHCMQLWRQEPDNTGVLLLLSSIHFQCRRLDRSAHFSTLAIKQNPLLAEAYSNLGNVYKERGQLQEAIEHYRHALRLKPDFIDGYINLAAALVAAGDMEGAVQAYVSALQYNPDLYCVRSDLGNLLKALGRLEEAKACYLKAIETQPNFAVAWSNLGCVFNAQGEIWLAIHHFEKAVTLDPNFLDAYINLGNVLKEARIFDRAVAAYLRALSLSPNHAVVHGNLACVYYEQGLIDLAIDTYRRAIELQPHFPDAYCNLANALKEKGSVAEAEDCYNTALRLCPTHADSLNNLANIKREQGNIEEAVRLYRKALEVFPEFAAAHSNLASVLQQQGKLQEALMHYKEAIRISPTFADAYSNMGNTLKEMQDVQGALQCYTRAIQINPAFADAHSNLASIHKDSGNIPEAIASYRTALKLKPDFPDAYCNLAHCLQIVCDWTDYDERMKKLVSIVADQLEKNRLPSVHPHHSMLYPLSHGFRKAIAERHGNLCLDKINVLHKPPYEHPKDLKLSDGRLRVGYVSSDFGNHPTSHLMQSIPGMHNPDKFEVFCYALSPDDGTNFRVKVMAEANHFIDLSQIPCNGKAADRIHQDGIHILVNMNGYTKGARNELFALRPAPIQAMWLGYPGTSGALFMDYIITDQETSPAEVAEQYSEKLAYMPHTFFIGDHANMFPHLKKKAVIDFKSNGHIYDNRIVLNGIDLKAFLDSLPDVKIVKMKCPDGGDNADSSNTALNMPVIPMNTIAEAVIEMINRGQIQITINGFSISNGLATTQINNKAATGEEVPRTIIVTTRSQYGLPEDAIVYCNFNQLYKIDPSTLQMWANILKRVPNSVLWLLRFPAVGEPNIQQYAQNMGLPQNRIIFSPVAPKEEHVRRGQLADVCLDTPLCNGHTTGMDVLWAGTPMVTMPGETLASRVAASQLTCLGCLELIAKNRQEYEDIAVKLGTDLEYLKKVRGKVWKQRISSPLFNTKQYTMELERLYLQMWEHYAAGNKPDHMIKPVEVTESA
# Read-out: binding
# Method: phage display NGS
# Molecule type: peptide
# Tested at: concentration not given
# Baseline: input library
Molecule,enrichment fold change
YAPQYQILFNYNIKL,15.6
TNSANKPVHHHVVDT,2.26
HVNYTTGHHTMSMH,5.71
SINYKLQPKYQIFFP,2.45
HTASQPQHTYWHRTQ,2.46
HLPSHYEAKPTKHHR,9.36
DINLWMMHDHVHHVK,9.67
RFNADHHYHDHHIVA,4.91

# Other studies, line by line
SMILES,target,test,setting,quantity,result
O=C(O)C1CCN1 (stereo not drawn),"Calcium/calmodulin-dependent protein kinase type II subunit alpha (CAMK2A, Homo sapiens, UniProt Q9UQM7)","enzyme activity, inhibitor",10 µM,inhibition,13%
